Assay results pooled from the literature.
Each line is one published result; not all experiments were run side by side.
EGFR: Epidermal growth factor receptor (EGFR, Homo sapiens, UniProt P00533)

| SMILES | target | assay | conditions | how to read | endpoint | value |
| --- | --- | --- | --- | --- | --- | --- |
| Cc1c(C(=O)NNC(=S)Nc2ccc(Cl)cc2)nnn1Cc1nc2ccccc2[nH]1 | EGFR | inhibitor | concentration not given | baseline: gefitinib | relative activity | ~60% |
| COc1ccc2c(c1)c(C)c1c(-c3ccccc3)c(S(=O)(=O)c3ccc(C)cc3)c3ccccc3n12 | EGFR | enzyme activity, inhibitor, ADP detection | 1 µM | – | inhibition | > 50% |
| Oc1ncnc2c1sc1sc3c(O)ncnc3c12 | Epidermal growth factor receptor (EGFR, Homo sapiens, UniProt P00533, T790M) | kinase activity | – | baseline: gefitinib IC50 over compound IC50 | relative potency | 2.95 |
| CC(=O)N[C@@H](Cc1c[nH]c2ccccc12)C(=O)N[C@@H](Cc1c[nH]c2ccccc12)C(=O)N[C@@H](Cc1c[nH]c2ccccc12)C(=O)N[C@@H](Cc1c[nH]c2ccccc12)C(=O)N[C@@H](Cc1c[nH]c2ccccc12)C(=O)N[C@@H](Cc1c[nH]c2ccccc12)C(=O)NCCCC[C@@H]1NC(=O)[C@H](CCCNC(=N)N)NC(=O)[C@H](CCCNC(=N)N)NC(=O)[C@H](CCCNC(=N)N)NC(=O)[C@H](CCCNC(=N)N)NC(=O)[C@H](CCCNC(=N)N)NC(=O)[C@H](CCCNC(=N)N)NC1=O | EGFR | kinase activity, Reaction Biology radiometric | concentration not given, together with: ATP 200 µM | baseline: DMSO | remaining activity | 127% |
| Cc1c2ccccc2n2c1c(-c1ccccc1)c(S(=O)(=O)c1ccccc1)c1ccccc12 | EGFR | enzyme activity, inhibitor, ADP detection | 1 µM | – | inhibition | > 50% |
| CC(C)[C@H](NC(=O)[C@H](CCC(=O)O)NC(=O)[C@H](CCC(=O)O)NC(=O)[C@@H]1Cc2ccc(O)cc2CN1C(=O)[C@H](CCC(=O)O)NC(=O)[C@H](CC(=O)O)NC(=O)[C@H](CC(=O)O)NC(=O)[C@H](CCC(=O)O)NC(=O)[C@@H](CCCNC(=N)N)NC(=O)[C@@H](CCCNC(=N)N)NC(=O)[C@@H](CCCNC(=N)N)NC(=O)[C@H](C)N(C)C(=O)[C@H](Cc1ccccc1)NC(=O)[C@@H](NC(=O)[C@H](Cc1ccccc1)NC(=O)[C@H](C)NC(=O)[C@H](CCCNC(=N)N)N(C)C(=O)[C@@H]1CCCN1C(=O)[C@H](CCCNC(=N)N)NC(=O)CNC(=O)c1ccc2c(c1)C1(OC2=O)c2ccc(O)cc2Oc2cc(O)ccc21)[C@@H](C)O)C(N)=O | EGFR | enzyme activity, substrate | – | – | Km | 365 µM |
| COc1cc(CC(=O)N2CC(=O)N[C@@H](Cc3ccccc3)CN(C(=O)Cc3ccc4ccccc4c3)CC(=O)N[C@@H](CCCCN)CN(C(=O)Cc3ccc4c(c3)OCO4)CC(=O)N[C@@H](CCCCN)CN(CC(N)=O)C(=O)CCSCc3ccc(cc3)C(=O)N[C@@H](CC(C)C)C2)cc(OC)c1 | EGFR | binding, SPR | – | baseline: Kd EGFR over Kd HER2 | selectivity ratio | 10 fold |
| CC(C)C[C@@H]1NC(=O)C[C@H](c2ccccc2)NC(=O)[C@H](CC(N)=O)NC(=O)C[C@H](C)NC(=O)[C@H](Cc2ccc(O)cc2)NC(=O)CSC[C@@H](C(=O)NCC(N)=O)NC(=O)[C@H](CO)NC(=O)[C@@H]2CCCN2C(=O)C[C@H](c2ccccc2)NC(=O)[C@H](CC(C)C)NC(=O)C[C@H](c2ccccc2)NC(=O)C[C@H](c2ccccc2)NC(=O)[C@H](CC(=O)O)NC(=O)[C@H](CC(N)=O)NC(=O)[C@H](Cc2ccccc2)NC1=O | Epidermal growth factor receptor, with EGF (EGFR, Homo sapiens, UniProt P00533) | inhibitor, AlphaLISA | concentration not given | – | protein interaction inhibition | inactive |

For quick reference, copied from above:
| SMILES | target | assay | conditions | how to read | endpoint | value |
| --- | --- | --- | --- | --- | --- | --- |
| COc1cc(CC(=O)N2CC(=O)N[C@@H](Cc3ccccc3)CN(C(=O)Cc3ccc4ccccc4c3)CC(=O)N[C@@H](CCCCN)CN(C(=O)Cc3ccc4c(c3)OCO4)CC(=O)N[C@@H](CCCCN)CN(CC(N)=O)C(=O)CCSCc3ccc(cc3)C(=O)N[C@@H](CC(C)C)C2)cc(OC)c1 | EGFR | binding, SPR | – | baseline: Kd EGFR over Kd HER2 | selectivity ratio | 10 fold |
